Published values gathered from unrelated publications.
Numbered parts are unrelated; each lists some results of a single study.

Block 1
Target: Histone acetyltransferase KAT6A, both winged helices, GST fusion (KAT6A, Homo sapiens, UniProt Q92794, residues 1-181)
Technique: protein binding microarray
Molecule type: double-stranded DNA, one strand shown
Matrix: in vitro
Concentration: not given
Setting: 8-mer, flanks averaged, mean of 2 arrays, mostly near background
Baseline: not given
Reading: higher = stronger binding
Residues (chain): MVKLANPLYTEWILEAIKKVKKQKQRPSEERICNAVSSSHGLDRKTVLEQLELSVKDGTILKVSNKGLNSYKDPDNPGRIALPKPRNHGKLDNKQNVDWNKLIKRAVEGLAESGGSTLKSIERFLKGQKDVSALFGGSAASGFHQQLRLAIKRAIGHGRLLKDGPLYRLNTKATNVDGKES
Oligonucleotide	E-score
GTCTAAGA	-0.0819
CAATGCTC	-0.09
GAGTCCCA	-0.126
ATAGACAA	-0.0775
ATCCCTAC	-0.0976
GTAAGGGA	-0.0438
GGACGCGA	0.116
GCGGCCCA	0.21
CAACCCGC	0.262
CAAGGAGA	-0.133
GTTAGAAC	0.00848
CCTTGAGA	-0.155
GACCACGA	-0.18
AGGTGGTA	-0.0762
ATATTTAG	-0.0221
ACGGACTA	0.0918
CTAGAATC	-0.156
ACCGGGCC	0.19
AGAAGGGG	-0.233
CACCCCAA	-0.259

Block 2
Target: Interferon regulatory factor 7, full length, phosphomimetic (IRF7, Homo sapiens, UniProt Q92985, residues 1-503, S471D/S472D/S475D/S476D/S477D/S483D/S484D/S487D)
Technique: protein-binding microarray
Molecule type: double-stranded DNA, one strand shown
Matrix: in vitro
Concentration: 2200 nM top
Setting: 60-bp whole probe
With: salmon DNA 0.4 mg/ml
Baseline: random background probes
Reading: higher = stronger binding
Shared flanks, not repeated: GCCTAGCAC … GTCTTGATTCGCTTGACGCTGCTG
Residues (chain): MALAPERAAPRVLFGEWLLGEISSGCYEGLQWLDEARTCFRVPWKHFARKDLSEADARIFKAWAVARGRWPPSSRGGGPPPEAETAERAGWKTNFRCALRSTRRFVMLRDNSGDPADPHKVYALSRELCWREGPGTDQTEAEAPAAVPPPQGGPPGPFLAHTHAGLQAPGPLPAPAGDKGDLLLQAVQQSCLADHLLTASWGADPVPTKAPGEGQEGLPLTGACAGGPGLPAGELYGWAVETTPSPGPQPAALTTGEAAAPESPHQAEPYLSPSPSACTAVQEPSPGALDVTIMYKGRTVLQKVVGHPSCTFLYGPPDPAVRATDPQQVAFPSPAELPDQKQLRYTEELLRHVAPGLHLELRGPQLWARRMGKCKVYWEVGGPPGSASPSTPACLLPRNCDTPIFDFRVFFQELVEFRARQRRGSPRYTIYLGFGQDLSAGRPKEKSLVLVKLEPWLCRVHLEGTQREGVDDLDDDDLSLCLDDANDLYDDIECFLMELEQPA
Oligonucleotide	fitted relative affinity [z-score]
GACGGTATCCTACTGATGACGTGCTAG	0.414
TCGAGTCTGCAACATGGGACTGTGCTA	0.694
TCCCCTCTAGGTCTTCTGAAGTGCTAG	0.33
GGAAATTCCAAGTTCATGGGGTGCTAG	-0.00742
TGTTCTTTTCTGTTGTCTGTGTGCTAG	3.35
TTAGATTCCAGTTTCGATAAGTGCTAG	3.72
GACGGTCTCCTTCTCCTGAGGTGCTAG	0.394
GACGGTATCGATACTGGGGACGTGCTA	0.187
GACGGTTTAGACACTGGGGACGTGCTA	0.139
TTACGACTGCTTTTCCTTTAGTGCTAG	2.69
TCATGCTTGCGTCTGGGACTGTGCTAG	0.482
TTAGATCTCAGTACCGATTAGTGCTAG	0.339
GACGGCATCCTTTTCCTGACGTGCTAG	1.03
TTGGGTTTCGGTCTCGGTTAGTGCTAG	5.61
AACGGACTGGACACTGGGGACGTGCTA	-0.643
GACAGTATCGGTCTCGGGACGTGCTAG	0.476
GTCGATTTCAGACTGGAGACGTGCTAG	0.882
GACTAACTGGGGTATCGAGACGTGCTA	0.0213
GACGGTATCGGTATCGGGATGTGCTAG	0.518
GACGTTTTCCTTTTCCTGACGTGCTAG	7.39
TTAGGTCCCGGACTGGGTTAGTGCTAG	-0.834
GACGATGTCAGTTCCGAGACGTGCTAG	0.476
GACGGTATCCTTATCCCGACGTGCTAG	0.954
TTAGGTTTCGGGTTTCGGGTAGTGCTA	10.1
TTAGGACTGGACTTTCGCTTAGTGCTA	3.12

Block 3
Target: RING finger protein unkempt homolog, zinc fingers 1-6, GST-SBP tag (UNK, Homo sapiens, UniProt Q9C0B0, residues 30-357)
Chain of UniProt Q9C0B0 (30-357, looked up): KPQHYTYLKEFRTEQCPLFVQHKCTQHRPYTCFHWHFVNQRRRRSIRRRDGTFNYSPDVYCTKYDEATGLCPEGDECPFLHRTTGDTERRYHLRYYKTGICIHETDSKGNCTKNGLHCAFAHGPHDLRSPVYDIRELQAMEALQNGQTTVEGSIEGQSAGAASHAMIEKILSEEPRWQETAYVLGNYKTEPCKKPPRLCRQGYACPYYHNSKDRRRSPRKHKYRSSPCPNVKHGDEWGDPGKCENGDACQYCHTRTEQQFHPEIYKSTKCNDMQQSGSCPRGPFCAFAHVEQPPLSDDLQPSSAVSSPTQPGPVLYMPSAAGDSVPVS
Technique: RNA Bind-n-Seq
Molecule type: RNA
Matrix: in vitro
Concentration: not given
Setting: RNA with constant flanks, human and mouse sites, ends assumed
Baseline: input RNA pool
Reading: higher = stronger binding
Shared flanks, not repeated: GGGAGUUCUACAGUCCGACGAUC … CAACAGAGGAUUGAGCAUCA
Oligonucleotide	bound/input enrichment [ratio]
CUAUAGAGGGAAAUAAUAGACAGAUUAAGAUGAAAGAAAAGCUUUCUGGGAUGAUUCAGUUAUAGGAAAUGCCAAGAAAAGGGCAUUUAAUUAUAAUAUCCUAAUUUUACAUCACAACAU	0.906
AUAACUUCUAAGGAUAAUUUAGAAGAUGAGACUGAAGAUGAUGACCUAUUUGAAACUGAGUUUAGACAAUAUAAAAGAACAUAUUACAUGACGAAGAUGGGGGUUGACGUAGUAUCUGAU	1.7
GAGGACCCAAGGUUGAUUCUCAUCACUUUUUUAAAUACUCCGAUUGCGGCCAAUCUGCCAAUAGGAUUCUUAGAGCUCACCCCGCUCGUUGGAUUGAUCCGCUGGUGCGUGAAGGCACCC	0.435
GAUUAUGUGCCUGCCUUAAAAGGUUUGGGUGAGUGCCACCUGUUGCUGGGGAAGGUGGCCUUAGUGGAUUUUCUGGAUGGAAAAGCUGUGGACUAUGUGGAACAAGCGCUGGGAUAUUUC	0.947
UUUGGAGAAAGUGUCAUGGAAGUUCUGCGUCCACAGCUUAUAAGAAUUGAUGGCCGGAAUUACAGGAAGAAUCCAGUCCAAGAACAGACCUAUCAACAUGAAGAAGAUGAAGAGGACUUC	0.21
AUUGACGAGAUAGCAAGCAACCUUCAGAGCAAAAUUAACCAAACCAAACAGCAGGAAGAUGCAGUGAUCAAUGUUGAGGAUGAUGAAGAGGAAGAGGAAGACAACGAAGUCGAGAUAGAG	0.527
CAUGCCUACACUGGUGCACCCCGGCCUCCCAUGAGGGCCCCUCCCUCCUCACCACAGUUGGUGUAUCCCACCACUGACACCACAGGGAACUCUCGCCGCACCCGCUCCUUCCGCAUCAGC	0.285
GAAGAGAAUUAUGGUGUGGUGUCCACAUAUGAUAGCAGUUUAUCUUCAUAUACGGUUCCUUUAGAAAGGGACAACUCAGAAGAAUUUCUUAAACGGGAGGCAAGGGCAAACCAGUUAGCA	1.41
GGGGAGCCGCCCGGUGCCCGUGUGUCCGUUCCUCCACUCAUCUGUUUCUCCGGUUCUCCCUGUGCCCAUCCACCGGUUGACCGCCCAUCUGCCUUUAUCAGAGGGACUGUCCCCGUCGAC	0.121
GGAGGUCCUCGAGGACCCAGUGUGCCCCCUGGCAUGAACCCUUCAGGCAUGGGAGGAAUGAUGGGCCCCUCUGGCCUUUCUUCAAUGGCCAUGACUCCUACCCGGGCAGCAGGCAUGACA	0.252
GGCUAUUUGAAAUAGACUAGAUUGUGUUGUCAAAUCAAGAAUGGGUGUGCAUGUGCUUGUCUUAGAAGUAUCACUGCUUUUUGCAUCUUAACUGCAGUUAAUUUUCCUUCCGACUGCGGU	0.953

Block 4
Target: Prothrombin, mature alpha-thrombin (F2, Homo sapiens, UniProt P00734)
Technique: aptamer microarray, sandwich
Molecule type: DNA with 2'F-ANA
Matrix: in vitro
Concentration: 200 nM
Setting: whole 15-mer aptamer, many near background
With: Cy3 exosite-II aptamer, 400 nM
Reading: higher = stronger binding
Oligonucleotide: GGTTGGTGTGGTTGG
Modification	mean fluorescence intensity
2'F-ANA at 4 6 7 12 13 15	385 a.u.
2'F-ANA at 2 3 4 5 6 7 8 9 10 12 13 14 15	55.4 a.u.
2'F-ANA at 4 5 8 10 11 12 13	44.2 a.u.
2'F-ANA at 2 3 4 6 8 13	414 a.u.
2'F-ANA at 1 2 5 6 7 8 12 14	77.2 a.u.
2'F-ANA at 1 2 3 5 6 9 10 13	47.6 a.u.
2'F-ANA at 1 2 5 6 7 14 15	45.4 a.u.
2'F-ANA at 3 4 5 7 10 11 14 15	58.8 a.u.
2'F-ANA at 1 3 5 8 9 10 11 13 15	48 a.u.
2'F-ANA at 3 4 6 7 10 11 13	224 a.u.
2'F-ANA at 1 4 7 9 10 11 14 15	48.2 a.u.
2'F-ANA at 1 3 5 6 7 8 9 11 12 14	111 a.u.
2'F-ANA at 4 5 7 8 13 15	53.7 a.u.
2'F-ANA at 3 4 5 6 8 11 15	82 a.u.
2'F-ANA at 4 6 8 9 10 11 13 15	58.3 a.u.
2'F-ANA at 3 7 10 11 12 13 14	466 a.u.
2'F-ANA at 2 4 5 9 12 14 15	49.1 a.u.
2'F-ANA at 5 8 11 12 15	114 a.u.
2'F-ANA at 3 4 8 9 10 11 12 13 15	251 a.u.
2'F-ANA at 3 4 5 7 8 13 14	54.9 a.u.
2'F-ANA at 8 11 14 15	199 a.u.

A few entries again (block 4):
Modification	mean fluorescence intensity
2'F-ANA at 1 2 5 6 7 14 15	45.4 a.u.
2'F-ANA at 4 5 8 10 11 12 13	44.2 a.u.
2'F-ANA at 1 3 5 8 9 10 11 13 15	48 a.u.
2'F-ANA at 3 4 5 7 8 13 14	54.9 a.u.
2'F-ANA at 3 4 8 9 10 11 12 13 15	251 a.u.
2'F-ANA at 3 4 5 6 8 11 15	82 a.u.
2'F-ANA at 4 6 8 9 10 11 13 15	58.3 a.u.
2'F-ANA at 1 4 7 9 10 11 14 15	48.2 a.u.
2'F-ANA at 1 2 3 5 6 9 10 13	47.6 a.u.
2'F-ANA at 3 4 6 7 10 11 13	224 a.u.
2'F-ANA at 5 8 11 12 15	114 a.u.
2'F-ANA at 3 7 10 11 12 13 14	466 a.u.
2'F-ANA at 1 3 5 6 7 8 9 11 12 14	111 a.u.
